Assay results from different studies.
Each numbered part is a random draw from the data of one study; scales do not carry over between parts. Substitutions count along the parent as printed.
Sequence of UniProt Q8N568 (whole entry, looked up): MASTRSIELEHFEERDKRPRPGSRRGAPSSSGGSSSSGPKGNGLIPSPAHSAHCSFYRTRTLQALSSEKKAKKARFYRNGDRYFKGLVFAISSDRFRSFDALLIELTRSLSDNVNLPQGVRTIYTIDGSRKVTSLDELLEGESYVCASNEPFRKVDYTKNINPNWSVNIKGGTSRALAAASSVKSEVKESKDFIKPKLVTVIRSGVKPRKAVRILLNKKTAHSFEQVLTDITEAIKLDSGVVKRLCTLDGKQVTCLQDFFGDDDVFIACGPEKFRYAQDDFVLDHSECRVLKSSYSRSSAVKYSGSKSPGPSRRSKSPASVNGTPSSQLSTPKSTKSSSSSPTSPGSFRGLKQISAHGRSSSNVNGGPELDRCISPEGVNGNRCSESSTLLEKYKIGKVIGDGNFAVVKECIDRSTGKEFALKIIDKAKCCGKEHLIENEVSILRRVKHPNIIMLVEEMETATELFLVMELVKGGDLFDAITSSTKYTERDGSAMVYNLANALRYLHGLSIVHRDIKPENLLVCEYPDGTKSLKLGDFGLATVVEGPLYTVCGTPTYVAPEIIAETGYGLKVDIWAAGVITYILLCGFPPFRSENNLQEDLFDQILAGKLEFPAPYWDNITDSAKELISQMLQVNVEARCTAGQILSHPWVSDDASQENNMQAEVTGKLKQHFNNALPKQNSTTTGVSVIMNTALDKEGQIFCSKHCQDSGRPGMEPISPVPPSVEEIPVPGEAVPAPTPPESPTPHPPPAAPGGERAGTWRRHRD

Sample 1
Target: Sal-like protein 4, full length isoform A (SALL4, Homo sapiens, UniProt Q9UJQ4, residues 1-1053)
Sequence of UniProt Q9UJQ4 (whole entry, looked up): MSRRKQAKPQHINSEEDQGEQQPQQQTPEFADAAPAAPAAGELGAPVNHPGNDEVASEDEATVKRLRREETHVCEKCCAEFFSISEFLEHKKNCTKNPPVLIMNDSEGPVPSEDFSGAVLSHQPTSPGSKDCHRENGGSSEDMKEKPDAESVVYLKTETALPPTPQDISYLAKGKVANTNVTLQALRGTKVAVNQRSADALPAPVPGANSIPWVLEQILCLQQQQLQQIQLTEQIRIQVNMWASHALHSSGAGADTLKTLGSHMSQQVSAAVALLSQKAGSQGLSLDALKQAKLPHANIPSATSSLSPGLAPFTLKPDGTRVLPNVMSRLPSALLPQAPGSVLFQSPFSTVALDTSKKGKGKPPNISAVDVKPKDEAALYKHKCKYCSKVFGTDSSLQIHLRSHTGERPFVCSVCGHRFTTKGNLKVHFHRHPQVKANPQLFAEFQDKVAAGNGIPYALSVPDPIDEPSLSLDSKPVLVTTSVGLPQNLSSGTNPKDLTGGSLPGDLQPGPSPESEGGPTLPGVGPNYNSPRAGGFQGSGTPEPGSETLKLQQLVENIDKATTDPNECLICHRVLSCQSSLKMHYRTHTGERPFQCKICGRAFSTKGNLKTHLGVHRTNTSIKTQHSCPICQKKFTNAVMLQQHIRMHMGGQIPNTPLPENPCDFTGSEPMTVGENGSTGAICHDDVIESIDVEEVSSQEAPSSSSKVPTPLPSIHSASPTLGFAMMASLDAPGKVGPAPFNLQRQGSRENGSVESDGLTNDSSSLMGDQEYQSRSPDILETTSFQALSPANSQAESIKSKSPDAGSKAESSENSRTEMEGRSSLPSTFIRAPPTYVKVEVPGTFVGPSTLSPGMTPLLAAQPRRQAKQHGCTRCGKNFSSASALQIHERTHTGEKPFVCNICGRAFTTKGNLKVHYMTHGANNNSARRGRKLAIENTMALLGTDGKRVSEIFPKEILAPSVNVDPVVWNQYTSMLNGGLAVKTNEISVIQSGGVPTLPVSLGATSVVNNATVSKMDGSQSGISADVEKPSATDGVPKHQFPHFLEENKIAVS
Method: universal PBM
Form: double-stranded DNA, one strand shown
Medium: in vitro
Tested at: 600 nM
Notes: 8-mer, flanks averaged, mean of replicates
Direction: higher = stronger binding
Oligonucleotide | E-score
AGATACCA | 0.154
AACCAGCC | -0.153
ATCCGGTA | -0.19
CAGATAAA | 0.213
ACCTTATC | 0.0858
CACGAATA | 0.223
AAGATTAC | 0.17
AGCCTGCA | -0.0951

Sample 2
Target: HLF, bZIP domain (human)
Method: DHFR protein complementation
Medium: yeast
Notes: single substitutions, most at no-binding floor
Relative to: wild-type JUN-FOS pair
Direction: higher = stronger binding
Starting sequence: JUN, bZIP domain (human); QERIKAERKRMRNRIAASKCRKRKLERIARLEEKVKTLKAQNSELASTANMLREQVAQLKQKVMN; partner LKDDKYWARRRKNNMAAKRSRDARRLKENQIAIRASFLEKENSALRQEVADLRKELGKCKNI
Variant | binding fitness [natural log]
E32W | -1.46
L38R | -1.51
M51S | -1.42
T48L | -1.43
R53I | -1.15
V56F | -1.54
E44C | -1.57
E32K | -1.34

Sample 3
Target: Centromere-binding protein 1, full length, N-terminal tag (CBF1, Saccharomyces cerevisiae, UniProt P17106, residues 1-351)
Sequence of UniProt P17106 (whole entry, looked up): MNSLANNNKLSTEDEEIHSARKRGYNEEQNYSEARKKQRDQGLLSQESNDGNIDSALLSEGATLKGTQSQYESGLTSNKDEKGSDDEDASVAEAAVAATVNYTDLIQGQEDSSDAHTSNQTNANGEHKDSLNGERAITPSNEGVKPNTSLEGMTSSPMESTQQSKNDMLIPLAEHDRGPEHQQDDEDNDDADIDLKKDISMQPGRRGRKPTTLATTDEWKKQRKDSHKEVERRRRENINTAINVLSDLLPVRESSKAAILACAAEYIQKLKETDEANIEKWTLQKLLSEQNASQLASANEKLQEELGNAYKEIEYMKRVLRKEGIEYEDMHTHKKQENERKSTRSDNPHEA
Method: protein-binding microarray
Form: double-stranded DNA, one strand shown
Medium: in vitro
Tested at: 0.8 µM
Notes: whole 60-bp probe, no competitor
Direction: higher = stronger binding
Oligonucleotide | fluorescence intensity [a.u.]
GAACAGGAAAAAAGTCACACCACAACTGCCCAATAGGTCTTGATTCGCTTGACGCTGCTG | 691
TGTACGAAGCTATATAGTCACGTTATAGTAGTTAGGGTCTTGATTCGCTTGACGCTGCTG | 2640
GAAGGGGTGAATTGTGGTCACGTGCTTCTATAATAGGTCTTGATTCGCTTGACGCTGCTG | 33800
GAATACTACAGCCATCATCACAAACACTGCTAATAGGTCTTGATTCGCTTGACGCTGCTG | 574
CTATACCACCACCTCCCCGTGATTTACATTCAGTTCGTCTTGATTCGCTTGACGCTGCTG | 1340
GAAGATCAAGAAACGCACGCTTTACATCACACATAGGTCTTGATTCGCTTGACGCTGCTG | 558
GAAGAACCTTTACTACATGTGCTGACAACCAAATAGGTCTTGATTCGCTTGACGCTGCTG | 727
CTAGCCTAGGAACTACACCTGACAGCAACTTGCTTCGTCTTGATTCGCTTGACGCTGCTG | 671

Other studies, line by line
Compound | target | read-out | method | tested at | measurement | result
CS(=O)(=O)c1cc(C2(NC(=O)c3cncc4c3cnn4-c3ccc(F)cc3)CC2)ccn1 | Serine/threonine-protein kinase DCLK2 (DCLK2, Homo sapiens, UniProt Q8N568) | cell-free assay | competition with immobilised ligand | 1 µM | remaining binding | 100%

Excerpt of the above (sample 3):
Oligonucleotide | fluorescence intensity [a.u.]
CTATACCACCACCTCCCCGTGATTTACATTCAGTTCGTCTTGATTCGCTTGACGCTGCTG | 1340
GAAGATCAAGAAACGCACGCTTTACATCACACATAGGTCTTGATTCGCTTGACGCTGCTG | 558
